Measurements collected from several papers.
Parts stem from different laboratories: compare values within a part only. Changes are numbered by the printed parent chain.

Set 1
Target: ABI1, truncated, D143A, DHFR fusion (Arabidopsis thaliana)
Technique: DHFR PCA, deep sequencing
Medium: yeast
Notes: methotrexate growth selection, single substitutions
Added: (+)-ABA 0.0091 µM
Relative to: wild-type fitted maximum
Direction: higher = stronger binding
Parent: PYL1, truncated, DHFR fusion (Arabidopsis thaliana); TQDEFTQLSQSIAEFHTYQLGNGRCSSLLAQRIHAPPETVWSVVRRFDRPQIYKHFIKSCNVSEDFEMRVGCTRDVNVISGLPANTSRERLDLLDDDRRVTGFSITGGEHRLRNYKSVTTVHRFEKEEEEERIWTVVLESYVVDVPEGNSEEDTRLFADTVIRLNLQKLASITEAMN
Under “relative binding score”, `A13N` is recorded as 24.8%.
`Q2S`: “relative binding score” 32.3%.
`Q7C`: “relative binding score” 14%.
For `R111F`, “relative binding score” read 2.93%.
`H34L`: “relative binding score” 26%.
Under “relative binding score”, `V44R` is recorded as 3.04%.
For `F66N`, “relative binding score” read 7.02%.
Under “relative binding score”, `N114E` is recorded as 2.34%.
Under “relative binding score”, `T101K` is recorded as 0.819%.
`G102W`: “relative binding score” 6.87%.
Under “relative binding score”, `R163H` is recorded as 1.09%.
For `R98M`, “relative binding score” read 1.47%.
For `A13T`, “relative binding score” read 19.6%.

Set 2
Target: Interferon regulatory factor 3, full length, phosphomimetic (IRF3, Homo sapiens, UniProt Q14653, residues 1-427, S386D/S396D/S398D/S402D/T404D/S405D)
Technique: protein-binding microarray
Form: double-stranded DNA, one strand shown
Medium: in vitro
Tested at: 2540 nM top
Notes: 60-bp whole probe
Added: salmon DNA 0.4 mg/ml
Relative to: random background probes
Direction: higher = stronger binding
Constant ends, left off below: GCCTAGCAC … GTCTTGATTCGCTTGACGCTGCTG
Residues (chain): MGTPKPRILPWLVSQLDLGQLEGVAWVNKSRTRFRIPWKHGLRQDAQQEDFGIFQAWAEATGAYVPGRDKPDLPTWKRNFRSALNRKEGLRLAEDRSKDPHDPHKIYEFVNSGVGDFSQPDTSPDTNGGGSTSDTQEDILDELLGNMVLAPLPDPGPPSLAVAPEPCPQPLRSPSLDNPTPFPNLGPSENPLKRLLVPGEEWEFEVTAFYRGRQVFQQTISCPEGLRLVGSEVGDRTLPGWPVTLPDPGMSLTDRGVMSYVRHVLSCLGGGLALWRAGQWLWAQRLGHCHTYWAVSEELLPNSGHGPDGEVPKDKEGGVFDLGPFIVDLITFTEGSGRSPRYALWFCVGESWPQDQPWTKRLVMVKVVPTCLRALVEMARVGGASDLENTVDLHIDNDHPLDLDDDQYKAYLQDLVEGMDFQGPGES
Under “fitted relative affinity”, `TTAGGTTTCCTACTGCTTTCGTGCTAG` is recorded as 4.35 z-score.
For `AGTTTTTCATTTTTTTTCATGTGCTAG`, “fitted relative affinity” read 2.06 z-score.
`GGCCTCTCTGTTTTCCTGTTGTGCTAG`: “fitted relative affinity” 0.34 z-score.
`GACGGTTTCCTTATCCTGTCGTGCTAG` — result for “fitted relative affinity”: 8.66 z-score.
`TTAGGTCTCGGTTTCGATTAGTGCTAG` — result for “fitted relative affinity”: 4.58 z-score.
For `GACGATTTCAGTCTCTAGACGTGCTAG`, “fitted relative affinity” read 2.53 z-score.
Under “fitted relative affinity”, `CTGATCCTTCATTTGAAAGAGTGCTAG` is recorded as 1.1 z-score.
For `TTGCTGAAATAATACTGTTAGTGCTAG`, “fitted relative affinity” read 0.631 z-score.
`GACGGACTGTGTATCGGGACGTGCTAG` — result for “fitted relative affinity”: 0.136 z-score.
`TCATCTTTCCCTGCCCCATGGTGCTAG`: “fitted relative affinity” 1.85 z-score.
`GACGGTATCGACACTGGGAACGTGCTA` — result for “fitted relative affinity”: 0.741 z-score.
Under “fitted relative affinity”, `CGATTACAGCTAGGTAGTGGGTGCTAG` is recorded as 1.84 z-score.
`ATGCATGTAAATAATCAGACAGTGCTA`: “fitted relative affinity” -0.253 z-score.
For `GACGGACCGGGGTATCGGGACGTGCTA`, “fitted relative affinity” read -0.326 z-score.
For `GACCGTTTCCTTCTCCTGACGTGCTAG`, “fitted relative affinity” read 7.97 z-score.
`ATTTCTTTCTAATTCAAAGTGTGCTAG`: “fitted relative affinity” 3.8 z-score.
`AAACGGGCTTCTTTTTCTCAGGTGCTA`: “fitted relative affinity” 0.615 z-score.
`CAACCTATAGGTTCAACGACGTGCTAG` — result for “fitted relative affinity”: 0.605 z-score.
Under “fitted relative affinity”, `TTAGGACTGGGACCGGGTTAGTGCTAG` is recorded as -0.749 z-score.

Set 3
Target: CCNF, cyclin fold, Cln2 fusion (human)
Technique: yeast growth competition, sequencing
Medium: yeast
Notes: strong parent motif
Relative to: not given
Direction: higher = stronger binding
Parent: MICAL3 docking peptide (human); LQLRRQLSFSEDS
`Q6D` — result for “normalised enrichment score”: 0.0587.
For `L3A`, “normalised enrichment score” read 6.97.
For `L3Q`, “normalised enrichment score” read 2.97.
Under “normalised enrichment score”, `S8E` is recorded as 5.95.
For `S8I`, “normalised enrichment score” read 8.52.
For `S10H`, “normalised enrichment score” read 5.08.
`E11K` — result for “normalised enrichment score”: 4.19.
`L7G` — result for “normalised enrichment score”: -0.161.
Under “normalised enrichment score”, `Q6K` is recorded as 6.61.
`L3N` — result for “normalised enrichment score”: 1.07.
Under “normalised enrichment score”, `S10W` is recorded as 5.76.
Under “normalised enrichment score”, `S10Y` is recorded as 6.02.

Set 4
Target: Histone acetyltransferase KAT6A, both winged helices, GST fusion (KAT6A, Homo sapiens, UniProt Q92794, residues 1-181)
Technique: protein binding microarray
Form: double-stranded DNA, one strand shown
Medium: in vitro
Tested at: not given
Notes: 8-mer, flanks averaged, mean of 2 arrays, mostly near background
Relative to: not given
Direction: higher = stronger binding
Target sequence (chain): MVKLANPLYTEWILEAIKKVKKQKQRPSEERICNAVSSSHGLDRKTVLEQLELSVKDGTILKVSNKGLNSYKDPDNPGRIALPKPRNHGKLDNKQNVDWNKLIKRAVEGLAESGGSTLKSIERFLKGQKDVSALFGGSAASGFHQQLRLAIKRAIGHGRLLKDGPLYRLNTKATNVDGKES
`ATTTCCCG` gave an E-score of 0.19.
`CGGTACCC` has an E-score of 0.105.
The E-score of `CATCCTGC` is reported as -0.0973.
With `GCCGCACA` the E-score was 0.192.
With `CGCTCACC` the E-score was 0.119.
The E-score of `ATCCAACA` is reported as -0.0907.
For `AGGAATTG`, the E-score was -0.174.
The E-score of `TCGCTAAA` is reported as 0.109.
With `AATGCCCC` the E-score was -0.183.
With `GCGTTCTA` the E-score was 0.0974.
With `CCCGAGTC` the E-score was 0.069.
`ATTTCTGC` has an E-score of 0.0582.
The E-score of `CACTGACA` is reported as -0.0121.
The E-score of `GTGACGTA` is reported as -0.0207.
For `CATATGCA`, the E-score was -0.00752.
The E-score of `AGAGCACA` is reported as -0.204.
`GGGTACAC` gave an E-score of 0.0464.
`ACCATCCA` has an E-score of -0.128.
For `CCACCCCA`, the E-score was -0.219.
With `GTATTGTA` the E-score was 0.0703.
With `GCGTTACC` the E-score was 0.218.
With `CAAGTCAC` the E-score was -0.0787.
`ACTGATAT` has an E-score of -0.0294.
For `GCGTTGAA`, the E-score was 0.254.

Set 5
Target: Hepatocyte nuclear factor 3-alpha (Foxa1, Mus musculus, UniProt P35582, residues 1-468, full length assumed)
Technique: EMSA with sequencing
Form: double-stranded DNA, one strand shown
Medium: in vitro
Tested at: 10 and 20 nM
Notes: whole designed probe, mean of two concentrations, ends assumed
Relative to: negative control set to 0
Direction: higher = stronger binding
Constant ends, left off below: GTGAGCGGTGCCCATTGATGGGGAAC … TTTCACTGGGATCGTGGGGAC
Target sequence (chain): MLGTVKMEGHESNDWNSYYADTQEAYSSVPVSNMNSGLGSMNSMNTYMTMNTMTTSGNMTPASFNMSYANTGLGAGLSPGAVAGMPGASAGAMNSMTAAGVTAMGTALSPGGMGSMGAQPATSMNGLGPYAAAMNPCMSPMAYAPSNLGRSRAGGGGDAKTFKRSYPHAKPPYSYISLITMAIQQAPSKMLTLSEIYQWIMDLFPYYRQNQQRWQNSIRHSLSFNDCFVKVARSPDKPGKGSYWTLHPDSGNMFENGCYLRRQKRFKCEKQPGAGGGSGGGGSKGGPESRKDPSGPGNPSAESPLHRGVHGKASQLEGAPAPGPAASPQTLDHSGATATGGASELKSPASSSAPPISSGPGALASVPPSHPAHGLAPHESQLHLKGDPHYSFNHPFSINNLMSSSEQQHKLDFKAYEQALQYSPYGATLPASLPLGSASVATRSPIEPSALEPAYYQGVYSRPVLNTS
Under “normalised bound fraction”, `ACGGAAAGTATGTTGCTGGGGCACAACATTCCAACCACCGCTCTCACAGCAGTACAAGTATCTCATTCTTCACCTTTTAAAATATTTGCCTCTTGTTTATATAGTGCCTGCATGTTTGCAGAGCACATTCACTGGACACTTTTTCATGGGCTCAGAGGGGGTTTGCATTGCAATGAATCTGAGAGGTCATTCT` is recorded as 0.341 ratio.
Under “normalised bound fraction”, `AGTGCCAAGAACTGCCATTTACACTCGGAAGCGCTCCAGGGAAGGTTAATACTACTGTGATTAATACAGATTACAGAGCCAATAAATTTTAGGTAATCTCCCAAAGGAGAGTTAAAGAGTTGTCTCATCGGTCCCATAAAGGCTGGTAAAAGGGGCGGGGAATGGTTCCACGCCAACCCTGTCCGTCACCGCA` is recorded as -0.0773 ratio.
`AAATGGAAAGTACTTTGAAAAGTTTGAAGCTGTATACAATAGCCATCTGTTGTCCTCAAAGTGAGTGGTCCTTGGGGGCAGGCTTGCTACAAAGTAAACAACCTGGGGCAAAAGGTTTTAGTTGTTTAGACAAGAACACACTGCCTTTCATCAGTGTGGGAAAGAACTGGATCGGGAATTAGACCACGTGGGC` — result for “normalised bound fraction”: 0.464 ratio.
Under “normalised bound fraction”, `TCTAAAATTCCAAAAAGTTTGCTTTTGCCCTTTTATAATACCTATCTCTAGCTTCTCTCTTTCTGGAGTAACTGCTGATTTATTTTCTGCCAATATTTGCTTTATTTTCTTGAAAGATATAGAAATGCAATCATACAGTAAGTGCTCCTATTTTCCTGTTTTCTTTCATTCAACATAATTATTTTAAGACTTA` is recorded as 0.258 ratio.
`AGGCCCGCCCCCTAGCCGCCGGGGTTGCTATGCGTTGCCGTGAAACGCCTGTCAATAAACCCTGTTTGGACAGTGGAGCAAGAGCACATGGGTTGTTTGCTTAGTGGTTAGAGGTTCAAAAGTCGACATTGTCCCGCTGCAAGCGATTACAAGTTCTTCCCCTTCCCGGGGCTCGGTCCCCTTGCACGCGGGT` — result for “normalised bound fraction”: 0.44 ratio.

Set 6
Target: Sal-like protein 4, full length isoform A (SALL4, Homo sapiens, UniProt Q9UJQ4, residues 1-1053)
UniProt Q9UJQ4, sequence (whole entry, looked up): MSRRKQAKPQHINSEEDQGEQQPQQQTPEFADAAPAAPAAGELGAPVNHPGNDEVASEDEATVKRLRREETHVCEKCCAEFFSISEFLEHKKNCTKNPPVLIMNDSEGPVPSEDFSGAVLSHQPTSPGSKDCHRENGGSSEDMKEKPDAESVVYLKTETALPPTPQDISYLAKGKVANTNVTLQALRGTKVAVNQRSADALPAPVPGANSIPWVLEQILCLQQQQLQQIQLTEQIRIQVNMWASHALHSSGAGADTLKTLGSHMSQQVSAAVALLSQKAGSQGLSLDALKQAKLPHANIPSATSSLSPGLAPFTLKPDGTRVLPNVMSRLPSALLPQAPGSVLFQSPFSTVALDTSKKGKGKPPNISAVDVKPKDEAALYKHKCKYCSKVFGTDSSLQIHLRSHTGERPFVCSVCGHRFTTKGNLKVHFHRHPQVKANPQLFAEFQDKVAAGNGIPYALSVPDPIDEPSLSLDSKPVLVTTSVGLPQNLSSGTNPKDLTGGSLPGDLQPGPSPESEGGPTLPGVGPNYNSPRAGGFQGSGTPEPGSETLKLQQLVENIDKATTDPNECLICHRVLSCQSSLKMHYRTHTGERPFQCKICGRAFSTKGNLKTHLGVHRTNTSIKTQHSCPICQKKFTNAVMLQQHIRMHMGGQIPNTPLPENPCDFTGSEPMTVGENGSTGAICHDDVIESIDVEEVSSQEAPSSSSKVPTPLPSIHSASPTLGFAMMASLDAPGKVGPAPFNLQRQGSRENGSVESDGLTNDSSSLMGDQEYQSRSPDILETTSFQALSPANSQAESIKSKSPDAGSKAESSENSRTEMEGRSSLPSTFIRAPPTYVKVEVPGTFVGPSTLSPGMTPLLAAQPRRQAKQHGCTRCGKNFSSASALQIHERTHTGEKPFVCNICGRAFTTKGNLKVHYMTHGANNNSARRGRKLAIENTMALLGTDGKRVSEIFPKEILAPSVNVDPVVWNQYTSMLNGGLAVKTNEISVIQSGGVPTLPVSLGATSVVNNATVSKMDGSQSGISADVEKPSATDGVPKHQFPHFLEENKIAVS
Technique: universal PBM
Form: double-stranded DNA, one strand shown
Medium: in vitro
Tested at: 600 nM
Notes: 8-mer, flanks averaged, mean of replicates
Direction: higher = stronger binding
`AACTTCTA` has an E-score of 0.109.
With `TGAACGAA` the E-score was 0.0867.
For `AGAATCGC`, the E-score was 0.0382.
For `AGAAGTCA`, the E-score was 0.108.
`TAACTCCA` gave an E-score of 0.0148.
The E-score of `ATGGTCTG` is reported as 0.0336.
The E-score of `AGAGAAAG` is reported as 0.0506.
`CGGCATAC` has an E-score of -0.141.
For `CCGGGACG`, the E-score was -0.378.
For `CTGTGTGC`, the E-score was -0.157.
`CTCGCCAA` gave an E-score of -0.0566.
`ATGTGTAC` has an E-score of 0.162.
The E-score of `CTCATTAA` is reported as 0.207.
For `GGCCACCC`, the E-score was -0.343.
The E-score of `AAGATAAT` is reported as 0.28.
The E-score of `ACAATGCA` is reported as 0.233.

Some of these lines once more (set 1):
For `F66N`, “relative binding score” read 7.02%.
Under “relative binding score”, `N114E` is recorded as 2.34%.
Under “relative binding score”, `T101K` is recorded as 0.819%.
`G102W`: “relative binding score” 6.87%.
Under “relative binding score”, `R163H` is recorded as 1.09%.
For `R98M`, “relative binding score” read 1.47%.
For `A13T`, “relative binding score” read 19.6%.
